Published values from different studies.
Numbered parts are unrelated; each lists some results of a single study.

Study 1
Target: Phosphate system positive regulatory protein PHO4, full length, GST-tagged (PHO4, Saccharomyces cerevisiae, UniProt P07270, residues 1-312)
Method: competition protein-binding microarray
Molecule type: double-stranded DNA, one strand shown
Sample: in vitro
Tested at: 2 µM
Notes: whole 60-bp probe, lowest competitor level
With: Cbf1 competitor, 0.05 µM
Reading: higher = stronger binding
Measurement: fluorescence intensity
Constant ends, left off below: … GTCTTGATTCGCTTGACGCTGCTG
Residues (chain): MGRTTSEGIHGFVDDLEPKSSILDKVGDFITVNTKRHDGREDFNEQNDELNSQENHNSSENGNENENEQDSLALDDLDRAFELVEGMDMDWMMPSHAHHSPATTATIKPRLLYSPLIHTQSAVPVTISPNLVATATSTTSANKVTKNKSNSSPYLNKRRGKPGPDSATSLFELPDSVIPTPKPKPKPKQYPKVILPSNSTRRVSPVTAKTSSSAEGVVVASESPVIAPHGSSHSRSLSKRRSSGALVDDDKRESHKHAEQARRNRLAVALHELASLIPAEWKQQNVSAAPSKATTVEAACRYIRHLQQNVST
CTTCTGTAAATTTGTCACAAAACTTGACGCGCCCCG: 2670 a.u.
GTTTCAAAAACCGGCCACGTACCCAAAGGTCGCCCG: 6430 a.u.
AGAACACAGTTTCGGCACGTGGAAGGTGTTTGGGAC: 18500 a.u.
TGCGCAACAACTTGTCTTGTGGGTGTATGTCTAGAA: 4510 a.u.
TAAACACCATCACTACACGTTTTAAACAAAACAAAC: 12100 a.u.
CGTCCTAGTGATTTTCACGTGGCCTCCATGAGGAAG: 15600 a.u.
TGCGCAACAACTTGCCATGTGGGTGTATGTCTAGAA: 10800 a.u.
AGTGCCACCTTAAAGCACGCAGTTACTGTTTACGCT: 8620 a.u.
AAAGCGGTAATTTTTCACGTGAGTTCACATATCTAT: 11000 a.u.
TTATCAGTGCTAAAGCACGATCCAAGTGGTGGCACA: 7070 a.u.
CATACCCAACCTTGTCACAGCACTTAAGATATTTGT: 4560 a.u.
AAATTACTAAGTTGCCTTGTGGGTGACGCCGTATGA: 5530 a.u.
CGTCCTAGTGATTGGGACGTGGGTGCCATGAGGAAG: 8950 a.u.
CAAGATCTTTGGCAAAACGTGGACCCCAACTTCGAA: 12600 a.u.
CATTTCTGGGAGCTGCATGTGGGTGACGCAGCAGCA: 10600 a.u.
TGCGCAACAACTTGGGTAGTGGGTGTATGTCTAGAA: 4980 a.u.
AAATTACTAAGTTGGCCAGTGGGTGACGCCGTATGA: 3410 a.u.
AAAGCGGTAATTTGTTACGTGGGTGCAGATATCTAT: 6140 a.u.
TCTTAATTAAAGTTTCACGGGCAATTCTAACCTTTT: 3170 a.u.
TGCGCAACAACTTGAAGTGTGGGTGTATGTCTAGAA: 5990 a.u.
CTAAGGCTGATGCTCAACGTGAAAAGGCTTTGAACG: 5930 a.u.
CATGTCTTGCACTGTCACACGATTGTAATTCAATTG: 7720 a.u.
CATCACCTTCCTTAGCACGGGTTCTTGCTGTCTGCT: 10900 a.u.
CGTCCTAGCGATTGACCGGTGGGTGCCATGAGGAAG: 6640 a.u.
CTTCTGTAAATTTGTCTAGTGGGTGGACGCGCCCCG: 3720 a.u.

Study 2
Target: RNA binding protein fox-1 homolog 2, RRM domain, GST-SBP tag (RBFOX2, Homo sapiens, UniProt O43251-10, residues 100-194)
Method: RNA Bind-n-Seq
Molecule type: RNA
Sample: in vitro
Tested at: 365 nM
Notes: natural RNA segment, single round, ends assumed
Baseline: no-protein control
Reading: higher = stronger binding
Measurement: RBNS enrichment (R)
Constant ends, left off below: GGGAGUUCUACAGUCCGACGAUC … UGGAAUUCUCGGGUGCCAA
Construct (chain): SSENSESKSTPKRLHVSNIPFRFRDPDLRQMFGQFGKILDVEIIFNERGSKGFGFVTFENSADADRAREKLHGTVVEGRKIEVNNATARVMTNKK
AGGGUCGCUUCUGUCCUGUUGCAAUCAUGUCCAAGUUUGUUUUUAGUGUGGACUUUUGUGGGCACUGUCUGUCAUUGGCCACCCAGUCACGUACCGAGUGGGCAGUGUCA: 0.611
CCGCAGGGUUAGAGUGGGCUCCUUUCUUUUUGGAAUCCUUUUCUUCUCCUUUGGUAGCAGCUCCCUGCCUCCAGGGCUUCCGCCACCAGCGUCUCUGCUGUGUUGCGCAG: 0.273
AGAUCCUGUCAUCAUGGGACGUCAGUGUUUUUUGUUAAAGGGGACAUACAUGGGGGCAUGUCAUGGGGAUAGAUCAAGAGGCACCAGCCAUUCUUGAGUUUGCCAGCUCC: 0.995
CCAGUUUCCUCUCCGUCUCACGGAUCCCCCGGCCAUGUUCAGUCCACCCCUCUCUCUCUCUCAACUUCAGAUGCCUCUGGCUGUUCUCAUGUCUAUAAUAAGAACCUCCC: 0.599
CACCUACAGCUCAGUGGGGUUUCCAUUCACGGACUUGCUGUUCCUGUGGGCCAGUGUCGUGUGGCCUGGAGACCAUCAGGAGUCUGCACACCCACCACUUACUUGUGCCA: 0.298
UUCAUUUUCCUUUUUAAAAUUUGUCUUUUAAAUAAACAAACAGAACCCUCUGUGAGGUUGGUGAGAGAAGGGUGCCGUGCUCCUUCCCUGUGCUCUGCCUCUAAGGCUGA: 0.31
UACUGAAAAAGCCAAAAUGUUUUGUUUCGUUUCUUUUUUUUUUUUUUUUUUAAAGAUAAACUUGUGUAGUUUGGAAGCAGAUUUAGAAAGAUGAACUUCACUUGGGCCAG: 0.798
AUAUGAGUCAAGUGCCAGCUGGACCUGAGGCCUGCUUCCCCGCGUGCGGGGCAGAGGCCCUUCUCUGCGCCAAAUGUCUGACUACACAGUAUACACAGGACAUUGUUGCU: 0.349
UAGUAGGUUAUUGUAUCAGACUAGAAUUAUAUCUGUUAUAUUUUGCUGUCUUUGUUUUCCUUUGUCUUUCUCCUGUUUGCCAAAAUUCAAUUCAAGUUGUGAUUUUCAAG: 0.391
GGGUGCUGCCCUCAGGGACUGCACCCUGACAAGUGUUAAGGCAACAUUCCUUUCUUGUGCCCUGGGCCAAAACCAAUGCUGAUGACCUUAUCAGCUUCCUGUUUCUUCCC: 0.221
UACCUUUUAUAACUGGAUGUUUAGUGUUAAACAGCCAGAAUCACAGAGACAGUAUUGUAUAACCAAAGUAUUUGAUGCCAAAAUUUGACGUUAAAAUAAUGAUUUGAUUU: 0.322
AAAUAUAUUAUGUCACUAUUCAGUUCAUGGAGGUUUGUGCUUUUUCAUAUUUUGUGAUAUAUAAGUAGUGAACACACAUGUUAUUUACUUCAAAAGACAGGAUUGACAAA: 0.323

Study 3
Target: Interferon regulatory factor 7, full length, phosphomimetic (IRF7, Homo sapiens, UniProt Q92985, residues 1-503, S101K/S471D/S472D/S475D/S476D/S477D/S483D/S484D/S487D)
Chain of UniProt Q92985 (whole entry, unmodified, looked up): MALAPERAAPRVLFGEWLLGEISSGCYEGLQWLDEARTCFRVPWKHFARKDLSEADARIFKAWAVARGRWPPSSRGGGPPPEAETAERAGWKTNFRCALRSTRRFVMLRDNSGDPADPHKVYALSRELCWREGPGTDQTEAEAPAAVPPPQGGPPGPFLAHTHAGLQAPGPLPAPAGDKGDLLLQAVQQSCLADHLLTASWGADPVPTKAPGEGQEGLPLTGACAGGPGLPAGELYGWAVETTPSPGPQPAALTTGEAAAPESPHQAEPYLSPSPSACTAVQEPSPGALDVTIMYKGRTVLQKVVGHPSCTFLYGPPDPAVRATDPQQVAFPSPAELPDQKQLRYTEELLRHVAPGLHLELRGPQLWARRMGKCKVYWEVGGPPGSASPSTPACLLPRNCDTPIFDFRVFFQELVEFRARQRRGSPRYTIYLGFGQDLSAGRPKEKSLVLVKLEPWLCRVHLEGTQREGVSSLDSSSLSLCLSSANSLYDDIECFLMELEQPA
Method: protein-binding microarray
Molecule type: double-stranded DNA, one strand shown
Sample: in vitro
Tested at: 250 nM
Notes: 60-bp whole probe
With: salmon DNA 0.4 mg/ml
Baseline: random background probes
Reading: higher = stronger binding
Measurement: log fluorescence
Constant ends, left off below: GCCTAGCAC … GTCTTGATTCGCTTGACGCTGCTG
ATGTTCACTGTGTACCGTCTGTGCTAG: 0.135 z-score
TTTTTTTTTTACTTCGGGTGGTGCTAG: 0.677 z-score
TTAGGTAACGGTCTCGGTTAGTGCTAG: 1.29 z-score
TTTGGAGTCATTCTCAACCCGTGCTAG: -0.551 z-score
TCATTACCGCATATCGGACTGTGCTAG: 0.8 z-score
TCATTTTTTTTTTTGTAACTGTGCTAG: 0.911 z-score
CCTTATTTAAGACCTATGCACGTGCTA: 1.01 z-score
TTAGGTTGCGGGTATCGGTTAGTGCTA: 0.437 z-score
TACAGCAGGGAGGGAGGCACGTGCTAG: -0.873 z-score
GACGGACTGGACTTTCGGGATGTGCTA: -0.167 z-score
TTAGGTCTCGGACTGGGGTAGTGCTAG: 0.116 z-score
GACGGTCTCCATCTCCTGACGTGCTAG: -0.176 z-score
TTAGAACTGACTTTCGATTAGTGCTAG: 1.38 z-score
GACCATTTCGGGTTTCGAGACGTGCTA: 4.03 z-score
GAGGATATCAGTCTCGAGACGTGCTAG: -0.0346 z-score
GGTGCCTCGGGTTCAGGGAGGTGCTAG: 0.0726 z-score
GACGATTTCGGCTTTCGAGACGTGCTA: 0.913 z-score
TTTATTTTCAGTATTACCTCGTGCTAG: 1.04 z-score
TTAGATATCAGTCTCGCTTAGTGCTAG: 0.831 z-score

Study 4
Target: Sal-like protein 4, full length isoform B (SALL4, Homo sapiens, UniProt Q9UJQ4-2, residues 1-616)
Method: universal PBM
Molecule type: double-stranded DNA, one strand shown
Sample: in vitro
Tested at: not given
Notes: 8-mer, flanks averaged, mean of replicates
Reading: higher = stronger binding
Measurement: E-score
Target sequence (chain): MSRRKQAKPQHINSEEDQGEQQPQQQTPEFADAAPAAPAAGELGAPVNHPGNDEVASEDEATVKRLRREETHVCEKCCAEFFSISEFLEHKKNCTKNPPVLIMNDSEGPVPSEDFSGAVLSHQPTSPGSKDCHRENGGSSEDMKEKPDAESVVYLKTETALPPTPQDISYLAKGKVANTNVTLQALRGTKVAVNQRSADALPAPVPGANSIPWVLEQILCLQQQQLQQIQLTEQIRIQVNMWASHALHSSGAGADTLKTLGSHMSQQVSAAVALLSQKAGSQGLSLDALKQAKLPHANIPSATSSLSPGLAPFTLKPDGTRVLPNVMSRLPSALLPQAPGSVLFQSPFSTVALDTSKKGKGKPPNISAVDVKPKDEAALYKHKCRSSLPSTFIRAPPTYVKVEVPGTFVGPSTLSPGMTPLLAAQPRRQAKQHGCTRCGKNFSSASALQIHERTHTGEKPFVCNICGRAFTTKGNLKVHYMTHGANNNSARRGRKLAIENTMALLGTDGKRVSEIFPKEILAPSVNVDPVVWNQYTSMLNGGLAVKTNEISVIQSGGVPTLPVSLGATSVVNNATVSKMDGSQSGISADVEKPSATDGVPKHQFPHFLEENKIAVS
CATCCTTA: 0.0668
GCGTCTAA: 0.0519
CACCGCCA: -0.198
CATAACAG: 0.183
AGAGGCGA: -0.156
CCGATTAA: 0.119
AGACCCTC: -0.209
ACTAAATC: 0.0489
AGGCCTAC: -0.2
TCATTCGA: 0.138
AGACTCGG: -0.34
CACAGGAA: 0.048
CGTTTATC: 0.221
CCGCCTAC: -0.0534
CGCGTCCA: -0.138
AAACCGTA: 0.0396
AAATCTGA: 0.084
ATTCAAAT: 0.338
AGGAGGCC: -0.298
TCGGCAAA: -0.23
CTTTAAAC: 0.0737
AGTTTCCG: -0.0958
AACGAGAT: 0.00255
ACCTAAGT: 0.0408
